Published values gathered from unrelated publications.
Numbered parts are unrelated; each lists some results of a single study. Changes are numbered by the printed parent chain.

Block 1
Target: Sal-like protein 4, full length isoform A (SALL4, Homo sapiens, UniProt Q9UJQ4, residues 1-1053)
Chain of UniProt Q9UJQ4 (whole entry, looked up): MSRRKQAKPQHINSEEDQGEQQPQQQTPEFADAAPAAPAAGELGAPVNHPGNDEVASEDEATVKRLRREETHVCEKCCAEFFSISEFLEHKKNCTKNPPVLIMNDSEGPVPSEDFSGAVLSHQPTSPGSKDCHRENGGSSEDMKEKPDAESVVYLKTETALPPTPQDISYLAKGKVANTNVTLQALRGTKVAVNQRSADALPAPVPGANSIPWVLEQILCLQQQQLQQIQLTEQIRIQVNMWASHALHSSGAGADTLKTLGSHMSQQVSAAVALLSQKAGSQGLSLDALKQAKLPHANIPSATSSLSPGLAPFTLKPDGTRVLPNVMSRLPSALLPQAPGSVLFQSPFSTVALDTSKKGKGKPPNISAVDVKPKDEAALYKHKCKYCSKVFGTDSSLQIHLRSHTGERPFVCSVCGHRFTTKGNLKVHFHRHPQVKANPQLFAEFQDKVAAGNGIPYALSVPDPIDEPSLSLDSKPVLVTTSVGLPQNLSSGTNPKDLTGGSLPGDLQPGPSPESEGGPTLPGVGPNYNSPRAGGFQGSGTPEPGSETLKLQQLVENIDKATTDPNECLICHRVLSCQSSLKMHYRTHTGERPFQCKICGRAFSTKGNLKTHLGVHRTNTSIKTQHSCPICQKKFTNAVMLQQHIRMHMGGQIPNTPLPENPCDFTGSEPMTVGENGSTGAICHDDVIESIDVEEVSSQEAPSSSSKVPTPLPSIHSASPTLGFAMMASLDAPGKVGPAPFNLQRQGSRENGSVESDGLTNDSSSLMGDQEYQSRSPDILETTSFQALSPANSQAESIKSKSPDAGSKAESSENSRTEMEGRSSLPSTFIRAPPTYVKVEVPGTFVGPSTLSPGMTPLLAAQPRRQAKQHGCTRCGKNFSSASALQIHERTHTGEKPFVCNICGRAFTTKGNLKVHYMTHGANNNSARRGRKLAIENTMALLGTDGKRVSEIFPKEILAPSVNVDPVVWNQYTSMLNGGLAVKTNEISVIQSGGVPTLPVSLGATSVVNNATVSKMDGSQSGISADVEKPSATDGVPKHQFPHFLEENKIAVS
Technique: universal PBM
Form: double-stranded DNA, one strand shown
Sample: in vitro
Tested at: 600 nM
Notes: 8-mer, flanks averaged, mean of replicates
Reading: higher = stronger binding
Measurement: E-score
CGCTCTCC: -0.327
GTAGTGCA: 0.134
ATAACTAA: 0.359
GGGCCGTA: -0.233
CTTACGAC: -0.0417
CGAGGAAC: -0.185
CAACGAAG: -0.0269
CCATACGC: -0.00357
ACGTGCAG: -0.0441
AAAACAGG: 0.0582
ACATTCTC: 0.124
CAGACGCC: -0.318
ACTTGTTA: 0.259
AATGGGTG: -0.0307
AAACACCT: -0.0291
CTTAGTCC: -0.0827
TACTGCTA: 0.0578
CGAAGACG: -0.271
ACACCTAC: 0.0122
GGTAATAC: 0.171
GTACCCAA: -0.189
ATAGGTGG: 0.127
CTCAAGTC: -0.0784
TGGGCTAA: -0.17
ATACGACC: -0.0751

Block 2
Target: UBE2V1 UBC core domain (UniProt Q13404)
Technique: yeast two-hybrid
Sample: yeast
Notes: mostly zero background
Reference: not given
Reading: higher = stronger interaction
Measurement: lacZ reporter activity
B1: MID1 RING domain (UniProt O15344); chain METLESELTCPICLELFEDPLLLPCAHSLCFNCAHRILVSHCATNESVESITAFQCPTCRHVITLSQRGL
B2: IRF2BPL RING domain (UniProt Q9H1B7); chain SPMANSGPLCCTICHERLEDTHFVQCPSVPSHKFCFPCSRESIKAQGATGEVYCPSGEKCPLVGSNVP
B3: TRIM69 RING domain (UniProt Q86WT6); chain VIQDITMELHCPLCNDWFRDPLMLSCGHNFCEACIQDFWRLQAKETFCPECKMLCQYNNCTF
B4: RNF170 RING domain (UniProt Q96K19); chain TRQQFYTDMYCPICLHQASFPVETNCGHLFCGACIIAYWRYGSWLGAISCPICRQTVTLLLTVF
B5: ZNF598 RING domain (UniProt Q86UK7); chain AAAPERGGGSCVLCCGDLEATALGRCDHPVCYRCSTKMRVLCEQRYCAVCREELRQVVFGK
B6: UHRF2 RING domain (UniProt Q96PU4); chain CGGDPEKKCHSCSCRVCGGKHEPNMQLLCDECNVAYHIYCLNPPLDKVPEEEYWYCPSCKTDSSEVVKAGER
B7: CUL9 RING domain (UniProt Q8IWT3); chain AQAVPVRPDHCPVCVSPLGCDDDLPSLCCMHYCCKSCWNEYLTTRIEQNLVLNCTCPIADCPAQPTGAFIR
B8: RC3H2 RING domain (UniProt Q9HBD1); chain QAAQWTEFLSCPICYNEFDENVHKPISLGCSHTVCKTCLNKLHRKACPFDQTAINTDIDVL
Residues (chain): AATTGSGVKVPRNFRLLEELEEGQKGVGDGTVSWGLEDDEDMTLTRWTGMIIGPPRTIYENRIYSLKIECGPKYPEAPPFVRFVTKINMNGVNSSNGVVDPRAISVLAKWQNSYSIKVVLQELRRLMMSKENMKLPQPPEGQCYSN
B1 (MID1 RING domain): 0
VTLSLTLPITCHICLGKVRQPVICINNHVFCSICIDLWLKNNSQCPACRVPITPENPCK (OBI1 RING domain (UniProt Q5W0B1)): 0
QLQDIKEQTMCPVCLDRLKNMIFLCGHGTCQLCGDRMSECPICRKAIERRILLY (MIB1 RING domain (UniProt Q86YT6)): 0
FASPPDSNFVCSVCHGVLKRPARLPCSHIFCKKCILRWLARQKTCPCCRKEVKRKKVVH (RNF151 RING domain (UniProt Q2KHN1)): 0
B2 (IRF2BPL RING domain): 0
QHHELTSLFECPVCFDYVLPPILQCQAGHLVCNQCRQKLSCCPTCRGALTPSIRNL (SIAH2 RING domain (UniProt O43255)): 0
B3 (TRIM69 RING domain): 0
B4 (RNF170 RING domain): 0
B5 (ZNF598 RING domain): 0
B6 (UHRF2 RING domain): 0
B7 (CUL9 RING domain): 0
YWAMDSTFELCKICAESNKDVKIEPCGHLLCSCCLAAWQHSDSQTCPFCRCEIKGWEAVS (CBLC RING domain (UniProt Q9ULV8)): 0
B8 (RC3H2 RING domain): 0

Block 3
Target: RING finger protein unkempt homolog, zinc fingers 1-6, GST-SBP tag (UNK, Homo sapiens, UniProt Q9C0B0, residues 30-357)
Chain of UniProt Q9C0B0 (30-357, looked up): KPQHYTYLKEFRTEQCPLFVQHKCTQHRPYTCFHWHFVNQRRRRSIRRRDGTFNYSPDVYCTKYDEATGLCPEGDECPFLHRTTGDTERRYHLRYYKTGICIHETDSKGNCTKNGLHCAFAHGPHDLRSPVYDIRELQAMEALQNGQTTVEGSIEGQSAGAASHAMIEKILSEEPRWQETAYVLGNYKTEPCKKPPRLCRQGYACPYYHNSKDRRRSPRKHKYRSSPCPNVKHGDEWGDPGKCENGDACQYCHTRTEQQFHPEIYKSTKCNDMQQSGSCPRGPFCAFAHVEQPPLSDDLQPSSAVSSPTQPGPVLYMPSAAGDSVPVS
Technique: RNA Bind-n-Seq
Form: RNA
Sample: in vitro
Tested at: not given
Notes: RNA with constant flanks, human and mouse sites, ends assumed
Reference: input RNA pool
Reading: higher = stronger binding
Measurement: bound/input enrichment
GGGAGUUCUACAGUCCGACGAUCCUAGCAGUUAUAAGGCACCUUGAAAUAAAUUGUUUGUGCCUGGAAAUGCAGGGAGGGCAAUAGCUUUGUAAAUUGGUUUACAUUUUUCUCCUUGAAUUUUUCUAGGGUCCUAGUGCUUCCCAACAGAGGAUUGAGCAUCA: 1.09 ratio
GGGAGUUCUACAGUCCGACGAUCGAUCCCAAAAUUCAUCUCUAAUGUGGUUUUUAAAUGCUGGAGGAUUCCAAUCAAUAUAAAUAUAUAUAUAUAUAUACACACACAUAUAUAAAAAGUAUAAUUUUUCUAUUUUUGUUUUUGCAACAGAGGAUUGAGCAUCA: 2.99 ratio
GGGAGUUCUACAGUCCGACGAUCCCUCUACCAGAUGACUAUAAUUGCAACGUAGAGCUUGCUCUGACUUCUGAUGGCAGGACAAUAGUAUGCUACCACCCUUCUGUGGACAUUCCAUAUGAACACACAAAACCUAUCCCUCGGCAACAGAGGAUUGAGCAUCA: 0.236 ratio
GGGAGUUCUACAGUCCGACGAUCUGAAGAACAUUGUUGCUGACAAAGGAUUUUCUGGGUUAUUUACAGGUCUAAUUCCUCGAUUAGUUAAAAUUGUUCCUGCUUGUGCCAUUAUGAUCAGUUCAUAUGAAUUAGGAAAGUCGUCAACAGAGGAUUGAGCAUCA: 1.33 ratio
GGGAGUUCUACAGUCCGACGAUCACAAUUGCUUUGCUUGGUUACCUGAAACACUACCGAAAUAUUCCUGGACCUCACAUGGUUUUAGUUCCAAAGUCUACUUUACACAACUGGAUGAAUGAAUUUAAACGAUGGGUCCCAUCUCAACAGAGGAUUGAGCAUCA: 0.128 ratio
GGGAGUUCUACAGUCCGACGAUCAAUGCAGUUAUAUUUGGACCAGAAGGGACACCCUUUGAAGAUGGUACUUUUAAACUAGUAAUAGAAUUUUCUGAAGAAUAUCCAAAUAAACCACCAACCGUUAGGUUUUUAUCCAAAAUGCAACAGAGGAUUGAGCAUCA: 5.09 ratio
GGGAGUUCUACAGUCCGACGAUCCCUAGCGGUGGGGACAUUCGAAUGAAUCAGGGGCCUGAGGAAUCAGAGAGCCACCUCUGCUCUGACAGCACUCCUAAGAUGGAAGGCCCCCAGGGGGCUUGUGGCCUGAAGCUGGCAGGACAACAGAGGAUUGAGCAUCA: 0.22 ratio
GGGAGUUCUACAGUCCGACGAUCAGUGACCAGCGGUUUAGACGGGUUGCAAAGGACCCGAGAUUUUGGGAAAUGCCAGAAAAGGAUCGAAAAGUCAAAAUUGACAAGAGAUUUCGAGCCAUGUUUCAUGACAAGAAGUUCAAGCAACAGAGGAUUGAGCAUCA: 0.164 ratio
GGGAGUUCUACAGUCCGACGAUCGCGACGCCCGGCCCGCAGGGCAGGUAAAGAGAUUAUAAAUCUUCCACUGAAUGAAAAAAAUUUUCUUAAAGCUGCAUAUACUCCAAGAAAAAAACCACAAAUGUUUUUCUGUUUUGCCUGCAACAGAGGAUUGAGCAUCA: 0.247 ratio
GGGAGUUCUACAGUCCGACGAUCCCAGGCAGAGGAGAUAUGGAACAGAAUGACUCUGACAACCGGAGAAUAAUUCGCUAUCCGGACAGUCAUCAGCUUUUCGUUGGUAACUUGCCUCAUGAUAUUGAUGAAAAUGAACUGAAACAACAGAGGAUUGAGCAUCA: 0.153 ratio
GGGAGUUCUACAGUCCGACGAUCGGAUGCCACCAAAGCCUCCCAUUUGCUAUAGUUUUAUUUCAUGCACUGGAAACUGAGCAUUUAUCGUAGAGUACCGCCAAGCUUUCACUCCAGUGCCGUUUGGCAAUGCAAUUUUUUUUACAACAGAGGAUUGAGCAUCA: 3.37 ratio

Block 4
Target: ABI1, truncated, D143A, DHFR fusion (Arabidopsis thaliana)
Technique: DHFR PCA, deep sequencing
Sample: yeast
Notes: methotrexate growth selection, single substitutions
Added: (+)-ABA 200 µM
Reference: wild-type fitted maximum
Reading: higher = stronger binding
Measurement: relative binding score
Parent: PYL1, truncated, DHFR fusion (Arabidopsis thaliana); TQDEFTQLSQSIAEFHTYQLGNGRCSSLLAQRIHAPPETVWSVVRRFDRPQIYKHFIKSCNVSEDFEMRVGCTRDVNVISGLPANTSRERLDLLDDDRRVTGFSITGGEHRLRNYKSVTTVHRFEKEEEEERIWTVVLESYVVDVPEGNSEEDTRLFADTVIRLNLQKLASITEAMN; partner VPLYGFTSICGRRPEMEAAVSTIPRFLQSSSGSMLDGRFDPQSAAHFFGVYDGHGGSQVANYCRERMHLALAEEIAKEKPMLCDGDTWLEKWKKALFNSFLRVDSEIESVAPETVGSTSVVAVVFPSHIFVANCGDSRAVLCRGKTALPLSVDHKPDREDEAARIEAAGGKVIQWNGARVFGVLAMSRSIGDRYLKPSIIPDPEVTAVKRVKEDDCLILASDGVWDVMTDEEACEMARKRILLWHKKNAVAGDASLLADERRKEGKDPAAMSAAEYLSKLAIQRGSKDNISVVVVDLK
R111A: 54.7%
M68P: 96.1%
L93S: 91%
E67A: 99.5%
E125H: 102%
W41C: 18.1%
G108L: 23.5%
H16A: 0.344%
R132I: 107%
N22G: 99.9%
P50D: 0.987%
V100G: 26.7%
T73V: 108%
R90M: 91.7%
V143K: -2.08%
I79M: 92.6%
T101V: 104%
M68K: 76.3%

Block 5
Target: CCNE2, cyclin fold, Cln2 fusion (human)
Technique: yeast growth competition, sequencing
Sample: yeast
Notes: strong parent motif
Reference: not given
Reading: higher = stronger binding
Measurement: normalised enrichment score
Parent: INSM1 docking peptide (human); PKAIRKLHFEDEV
K2H: 1.85
E12P: 1.91
I4T: 0.488
I4V: 2.67
H8R: 0.68
F9S: 0.072
H8I: 2.33
F9N: 0.397
I4H: 0.446
I4R: 3.56
I4Y: 0.374
R5S: 0.148
H8W: 1.26
F9M: 0.357
L7Q: 0.151
K6I: 0.759
R5D: 0.306
E10H: 0.795
L7F: -0.323
K6H: 0.729
L7I: 0.618
D11G: 1.32
E10M: 0.929
I4Q: 0.952
K6Q: 1.77
